Measured values of several laboratories.
Each line is one published result; not all experiments were run side by side. ± gives the spread as reported.
Cell line: HepG2

SMILES | assay | system | conditions | measurement | value
C#CCOc1ccc(-c2nc(C)c(C(=O)OCC)s2)cc1/C=N/NC(=O)C=C | cell growth or viability, ATP luminescence | – | 24 h | IC50 | 54.5 µM
CC1CCN(C(=O)c2cccc(NC(=O)Nc3ccc(N)cc3)c2)CC1 | cell growth or viability, MTT | – | 100 µM | viability | 85.7%
NC(=O)c1cc(-c2ccsc2)ccc1OCCc1cc(F)cc(F)c1 | – | – | 3 (unit not given), glucose medium | CC50 | 28 ± 15 µM
C#Cc1ccc(/C=C/C=N/NC(=O)CCl)cc1 | cell growth or viability, ATP luminescence | – | 24 h | IC50 | 12.1 µM
CC1CCN(C(=O)c2cccc(NC(=O)Nc3ccccc3)c2)CC1 | cell growth or viability, MTT | – | 100 µM | viability | 74.9%
CC1CCC(C(C)(C)C(=O)Nc2ccc(Oc3ccccc3)cc2)CC1 (stereo not shown) | cell growth or viability | – | 72 h | IC50 | 14.4 µM
NC(=O)c1cc(-c2ccc(C(F)(F)F)nc2)ccc1OCCc1cccc(F)c1 | – | galactose medium | 3 (unit not given) | CC50 | > 100 µM
CC[C@H](C)[C@H](NC(=O)[C@H](CCCN)NC(=O)[C@H](CCCNC(=N)N)NC(=O)[C@@H]1CCCN1C(=O)[C@@H]1CCCN1C(=O)[C@H](CCCNC(=N)N)NC(=O)[C@@H]1CCCN1C(=O)[C@H](CCCNC(=N)N)NC(=O)[C@@H]1CCCN1C(=O)[C@H](CC(C)C)NC(=O)[C@H](Cc1ccc(O)cc1)NC(=O)[C@@H]1CCCN1C(=O)[C@@H]1CCCN1C(=O)[C@H](CCCCN)NC(=O)[C@H](CC(=O)O)NC(=O)[C@@H](N)C(C)C)C(=O)N[C@@H](Cc1ccc(O)cc1)C(=O)N[C@@H](CC(N)=O)C(=O)N[C@@H](CCCN)C(N)=O | MTT | – | concentration not given, DMEM/F12 with FBS | viability | not toxic
CC1CCN(C(=O)c2cccc(NC(=O)Nc3ccc(F)cc3)c2)CC1 | cell growth or viability, MTT | – | 100 µM | viability | 96.1%
NC(=O)c1cc(-c2ccco2)ccc1OCCc1cccc(F)c1 | – | – | 3 (unit not given), human | CC50 | 41 ± 25 µM
O=C(O)c1cccc(CP(=O)(O)O)n1 | lysosome integrity, neutral red uptake | – | 24 h, without 10% FBS | EC50 | > 250 µg/mL
NC(=O)c1cc(C2=CCOC2)ccc1OCCc1cccc(F)c1 | – | galactose medium | 3 (unit not given) | CC50 | 29 ± 4 µM
Cc1ccccc1S(=O)(=O)N1CCCC2(C1)Nc1cccnc1N=C2NC1CCCC1 (stereo not shown) | – | – | 72 (unit not given) | CC50 | 73.8 µM

Excerpt of the above:
SMILES | assay | system | conditions | measurement | value
O=C(O)c1cccc(CP(=O)(O)O)n1 | lysosome integrity, neutral red uptake | – | 24 h, without 10% FBS | EC50 | > 250 µg/mL
NC(=O)c1cc(-c2ccsc2)ccc1OCCc1cc(F)cc(F)c1 | – | – | 3 (unit not given), glucose medium | CC50 | 28 ± 15 µM
